Results gathered from unrelated publications.
Parts stem from different laboratories: compare values within a part only. Positions count from the first letter of the parent shown.

Block 1 — method: RNA Bind-n-Seq; molecule type: RNA; medium: in vitro; concentration: 365 nM; baseline: no-protein control; reading: higher = stronger binding
Target: RNA binding protein fox-1 homolog 2, RRM domain, GST-SBP tag (RBFOX2, Homo sapiens, UniProt O43251-10, residues 100-194)
Notes: natural RNA segment, single round, ends assumed
Constant ends, left off below: GGGAGUUCUACAGUCCGACGAUC … UGGAAUUCUCGGGUGCCAA
| Strand | RBNS enrichment (R) |
| --- | --- |
| GUAUUGAAAUAAAGUAGAAAAUGUUCGGUAUCAUAUUUGUAACUAUCAACUUUUAAAAACAUUUGACUGUUUUUGUUACAUGCAUUGUAUUUCUGCUUUGUCUAUAAGAA | 0.592 |
| GGCAUGGGAGGUCCUGCCAUCCGGGAGGAAAAGGAAAGUUUAGCCUCUAGUCUACCACCAGUGUUAACGCACUCUAAAGUUGUAACCAAAAUAAAUGUCUUACAUUACAA | 0.536 |
| AACCAAUUCCUCAUCCUCAGAUGCUCAAAGUUGUUUUUUUUGUUUGUUUGUUUAUUAGAUGAAUUAUCCUAUUUCAGUACUUCAGCAAGAGAGAACCUAACUGUAUCUUG | 0.427 |
| ACCUACUUCAUGUGGACCCUUUUUUUCCUUCAGUUUAACUUUUCUGGAGCAGUGUGCUGCGUAGUUCGGCCUGAGUUUGUGCAGCUUGUUAAGACAACUCUUGUGUACGC | 0.976 |
| UAUUUUUAACUAUGUUACACUCGUAAAUGACAAAACCAAAUCUUCUAUUAAAAGGCAAAGAUGAUGGGACUGUGUCUGGUUUUUGCAUGUCCUCCCUCACCCCCCCACCC | 3.03 |
| UUUGGAAAACAAAUACAUGCCUACUUUGUGCAUAUUUGCAUUAACAUGGCAAAGAUUGUAUGAAAUACCUGUUUUUCAGAAAAUAAAGGUUCAGUCUCAAAAGAUACAGC | 0.364 |
| CCAGCUGUAUUAUGUACUGUACUGUACUAGGAGUUCCCUAGUUUGCUAGGUGAGUUUCAUUCUGGAAAAGGAGAAAGAUAGUGAUGUCUAGAUGCCUGUAGCCUGUGGGG | 0.839 |
| CGUUUUGUUUUGUUUUGUUUUUAAACACCUGCUUACCCCUUAAAUGCAAUUUAUUUACUUUUACCACUGUCACAGAAACAUCCACAAGAUACCAGCUAGGUCAGGGGGUG | 0.585 |

Block 2 — method: protein binding microarray; molecule type: double-stranded DNA, one strand shown; medium: in vitro; concentration: not given; baseline: not given; reading: higher = stronger binding
Target: Histone acetyltransferase KAT6A, both winged helices, GST fusion (KAT6A, Homo sapiens, UniProt Q92794, residues 1-181)
Notes: 8-mer, flanks averaged, mean of 2 arrays, mostly near background
Target sequence (chain): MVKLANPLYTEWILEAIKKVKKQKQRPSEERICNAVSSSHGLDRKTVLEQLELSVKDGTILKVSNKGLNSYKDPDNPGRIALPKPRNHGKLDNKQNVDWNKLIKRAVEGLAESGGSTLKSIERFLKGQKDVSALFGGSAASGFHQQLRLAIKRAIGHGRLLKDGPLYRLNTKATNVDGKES
| Strand | E-score |
| --- | --- |
| TCCTGTCA | 0.0219 |
| GCGAGAGC | 0.129 |
| TTAACGAA | 0.0714 |
| ATAGGTGA | -0.0942 |
| ACGCGCGG | 0.388 |
| GGTATTGA | 0.0668 |
| AAACGATC | -0.132 |
| ATCGTCCG | 0.124 |
| GAAGAAAA | -0.138 |
| TAACCAGA | -0.123 |
| AAAGACGT | -0.154 |
| CAGGCACA | -0.176 |
| AACTAGCT | -0.00634 |
| AGACTCGA | 0.000975 |
| CCAACTTC | -0.167 |
| CGACAACG | 0.148 |
| CGCGACAC | 0.214 |
| CGTAACAC | 0.0717 |
| GGACCGCC | 0.135 |
| ACCACAAG | -0.114 |
| AAAGATAG | -0.13 |
| CGACCTTC | 0.086 |
| CCAGGTAA | -0.118 |
| ACAATGGC | -0.0273 |
| ACGACTTG | -0.129 |

Block 3 — method: DHFR PCA, deep sequencing; medium: yeast; together with: (+)-ABA 2500 µM; baseline: wild-type fitted maximum; reading: higher = stronger binding
Target: ABI1, truncated, D143A, DHFR fusion (Arabidopsis thaliana)
Notes: methotrexate growth selection, single substitutions
Starting sequence: PYL1, truncated, DHFR fusion (Arabidopsis thaliana); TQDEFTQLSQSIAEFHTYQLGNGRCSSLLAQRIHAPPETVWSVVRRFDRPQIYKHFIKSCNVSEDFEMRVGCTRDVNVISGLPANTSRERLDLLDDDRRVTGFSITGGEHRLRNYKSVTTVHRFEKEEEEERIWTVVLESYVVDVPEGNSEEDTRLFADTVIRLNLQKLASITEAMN; partner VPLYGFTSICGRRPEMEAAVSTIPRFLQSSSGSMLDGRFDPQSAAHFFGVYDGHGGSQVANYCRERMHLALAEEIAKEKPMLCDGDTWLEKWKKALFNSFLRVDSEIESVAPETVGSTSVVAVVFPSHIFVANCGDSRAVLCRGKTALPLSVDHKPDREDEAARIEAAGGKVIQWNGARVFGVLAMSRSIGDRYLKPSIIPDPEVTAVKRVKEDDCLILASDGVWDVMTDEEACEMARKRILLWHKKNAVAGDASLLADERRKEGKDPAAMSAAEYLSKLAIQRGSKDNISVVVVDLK
| Substitution | relative binding score |
| --- | --- |
| D159I | 23.8% |
| R32Y | 95.9% |
| E67Q | 95.4% |
| K116N | 100% |
| V62F | 92.8% |
| L112P | 28.2% |
| N77E | 101% |
| E14Q | 88.9% |
| K58Q | 91.8% |
| Q167R | 98.4% |
| D48R | 78.9% |
| V121W | -1.66% |
| E4K | 82.1% |
| N177D | 105% |
| V136W | 103% |
| L94G | 24.9% |
| L28C | 101% |
| R24M | 92.4% |
| S26D | 84.3% |
| N165C | 47.2% |
| F5N | 88.2% |
| G23M | 97.5% |
| G107K | 93.3% |
| L28M | 102% |
| T17M | 94.4% |

Block 4 — method: protein-binding microarray; molecule type: double-stranded DNA, one strand shown; medium: in vitro; concentration: 940 nM top; notes: 60-bp whole probe; together with: salmon DNA 0.4 mg/ml; baseline: random background probes; reading: higher = stronger binding; constant ends, left off below: GCCTAGCAC … GTCTTGATTCGCTTGACGCTGCTG
Target: Interferon regulatory factor 5, full length, phosphomimetic (IRF5, Homo sapiens, UniProt Q13568-2, residues 1-514, S451D/S453D/S456D/S462D)
| Strand | fitted relative affinity [z-score] |
| --- | --- |
| TTAGGACTGGGACGGGGTTAGTGCTAG | 0.000469 |
| AGCAAGCCCCTTCCTTTCGGGTGCTAG | -0.125 |
| TTAGATTCCAGTTCCGATTAGTGCTAG | 1.54 |
| TCAAAATTCTAATTAGAACTGTGCTAG | -0.456 |
| TTAGGTCTGGACACTGGGTTAGTGCTA | -0.621 |
| TCAACTTTCTCTGCTCTTTTCGTGCTA | 2.26 |
| TCAAATTTTTTTCTAAGACTGTGCTAG | 0.472 |
| GACCGTATCGGTCTCGGGACGTGCTAG | 5.05 |
| TTAGGTTTCCTTTTCCTTTCGTGCTAG | 2.07 |
| TTAGGTCTCATTTTCCTTTAGTGCTAG | 1.83 |
| GACGGTCTTGGTTTCGGGACGTGCTAG | 4.92 |
| TCAAGGGTCTGTTTGGGACTGTGCTAG | -0.688 |
| TCTAACTTCCCAATGGTCTTGTGCTAG | 0.442 |
| TTAGATCCCAGTATCGATTAGTGCTAG | 4.63 |
| GACGATCGCAGACTGGAGACGTGCTAG | -0.974 |
| TTGGGTTTCGACTTTCGGTTAGTGCTA | 8.27 |
| GACGGTATCCTTATCCAGACGTGCTAG | 0.276 |
| TTAGATCTCAGTTGCGATTAGTGCTAG | 0.939 |
| TCACCTGAATGAAAACATACTGTGCTA | 0.185 |

Repeated from above (block 2):
| Strand | E-score |
| --- | --- |
| ATCGTCCG | 0.124 |
| GGACCGCC | 0.135 |
| AAAGACGT | -0.154 |
| AACTAGCT | -0.00634 |
| CCAACTTC | -0.167 |
| GGTATTGA | 0.0668 |
| ACGACTTG | -0.129 |
| CAGGCACA | -0.176 |
| GCGAGAGC | 0.129 |
| TTAACGAA | 0.0714 |
| CCAGGTAA | -0.118 |
| CGACAACG | 0.148 |
